Measured values from different studies.
Lines come from different studies, so protocols differ. Values joined by “and” are separate records of one study, mostly repeats; a detail may differ. Numbers after ± are the reported error.
Chain of UniProt Q8NB78 (whole entry, looked up): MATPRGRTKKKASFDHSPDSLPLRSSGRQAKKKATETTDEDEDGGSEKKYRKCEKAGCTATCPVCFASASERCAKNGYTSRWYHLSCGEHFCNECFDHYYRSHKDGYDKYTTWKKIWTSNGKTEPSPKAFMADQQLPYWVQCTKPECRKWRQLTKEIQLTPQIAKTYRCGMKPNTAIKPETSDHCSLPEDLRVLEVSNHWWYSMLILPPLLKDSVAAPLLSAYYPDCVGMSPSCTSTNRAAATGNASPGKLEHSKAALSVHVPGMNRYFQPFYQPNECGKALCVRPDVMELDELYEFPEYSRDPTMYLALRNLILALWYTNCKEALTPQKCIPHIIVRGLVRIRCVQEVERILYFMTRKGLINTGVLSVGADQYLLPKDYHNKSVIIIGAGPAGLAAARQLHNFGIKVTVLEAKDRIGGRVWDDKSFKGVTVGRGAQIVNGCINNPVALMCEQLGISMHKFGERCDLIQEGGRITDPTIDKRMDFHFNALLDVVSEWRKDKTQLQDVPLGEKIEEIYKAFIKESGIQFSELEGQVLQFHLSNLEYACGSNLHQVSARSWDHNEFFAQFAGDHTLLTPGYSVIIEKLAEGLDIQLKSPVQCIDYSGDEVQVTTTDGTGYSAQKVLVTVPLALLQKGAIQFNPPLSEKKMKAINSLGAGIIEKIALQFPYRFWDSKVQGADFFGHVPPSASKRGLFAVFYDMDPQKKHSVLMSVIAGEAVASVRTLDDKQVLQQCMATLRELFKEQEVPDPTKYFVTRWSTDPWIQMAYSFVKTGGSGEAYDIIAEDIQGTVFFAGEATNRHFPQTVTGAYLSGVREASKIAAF
Chain of UniProt O75469 (whole entry, looked up): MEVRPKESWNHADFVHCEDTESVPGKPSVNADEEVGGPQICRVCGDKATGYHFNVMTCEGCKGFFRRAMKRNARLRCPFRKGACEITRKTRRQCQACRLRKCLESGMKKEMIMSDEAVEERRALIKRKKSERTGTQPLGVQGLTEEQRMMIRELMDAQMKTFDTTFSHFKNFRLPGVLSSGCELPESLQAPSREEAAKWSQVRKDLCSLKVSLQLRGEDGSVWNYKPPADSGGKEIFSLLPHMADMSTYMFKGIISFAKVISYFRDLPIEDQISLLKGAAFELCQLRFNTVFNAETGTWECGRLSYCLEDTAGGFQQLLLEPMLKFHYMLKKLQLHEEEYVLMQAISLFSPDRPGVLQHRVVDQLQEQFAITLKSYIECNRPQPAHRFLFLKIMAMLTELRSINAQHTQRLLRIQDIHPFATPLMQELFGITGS

CC(C)=CCc1c2c(c(O)c3c(=O)c(-c4ccc(O)cc4)coc13)CC(C(C)(C)O)O2 (stereo not drawn)  viability (A549; cell growth or viability, MTT; 25 µg/mL): 9.75%
COc1ccc([C@@H]2CC(=O)c3c(O)cc(O[C@@H]4O[C@H](CO[C@@H]5O[C@@H](C)[C@H](O)[C@@H](O)[C@H]5O)[C@@H](O[C@H]5O[C@H](CO)[C@@H](O)[C@H](O)[C@H]5O)[C@H](O)[C@H]4O)cc3O2)cc1O  viability (MRC5; cell growth or viability, MTS; 50 µg/mL, 24 h): 75.6%
COc1ccc(-c2coc3c(CC=C(C)C)c(O)c(CC=C(C)C)c(O)c3c2=O)cc1O  viability (A549; cell growth or viability, MTT; 6.25 µg/mL): 114%
Cc1nc(C)c(C=[N+]([O-])C(C)(C)C)nc1C  viability (Sprague-Dawley rat primary midbrain neurons; 100 µM, 24 h; reference: untreated): 98.1 ± 1.46%
COc1cc2c(cc1O)[C@]1(O)C(=O)c3c(O)cc4c(c3O[C@@H]1CO2)C=CC(C)(C)O4  viability (A549; cell growth or viability, MTT; 12.5 µg/mL): 108%
COc1ccc(CCCN[C@H]2CCC[C@@H]2CN[C@H]2CCC[C@@H]2CNCCCCN[C@H]2CCC[C@@H]2CN)cc1  Ki (KDM1B (Homo sapiens, UniProt Q8NB78); enzyme activity, inhibitor): 4.4 µM
CN1CCN(C)CCN(Cc2c(O)ccc3nc(-c4ccc(N(C)C)nc4)sc23)CC1  viability (Neuro2A; Alamar Blue; up to 10 µM, 40 h; reference: 1% DMSO vehicle): > 80%
CC(=O)c1c(C)c2cnc(Nc3ccc(N4CCNCC4)cn3)nc2n(C2CCCC2)c1=O  viability (mAb-expressing recombinant CHO; 5 to 10 µM, 5 days; reference: untreated): not toxic
CNc1ccc(-c2nc3ccc(O)c(CN4CCN(C)CCN(C)CC4)c3s2)cc1  viability (Neuro2A; Alamar Blue; up to 10 µM, 40 h; reference: 1% DMSO vehicle): > 80%
O=C(N[C@@H](Cn1cncn1)c1ccc(F)cc1F)c1ccc(-c2nnc(-c3ccccc3)o2)cc1  viability (NIH/3T3; BrdU incorporation; 50 µM, 24 h; reference: DMSO): 101 ± 1.4%
CC(C)=CCc1cc(-c2coc3cc(O)c(CC=C(C)C)c(O)c3c2=O)ccc1O  viability (A549; cell growth or viability, MTT; 100 µg/mL): 5.09%
CCCN(CC(=O)N(CCC)CC(=O)N(CCC)CC(=O)N(CCC)CC(=O)N(CC(=O)N(CCC)CC(=O)N(CCC)CC(=O)N(CCC)CC(=O)N(CCC)CC(=O)N(CC(=O)N(CCC)CC(=O)N(CCC)CC(=O)N(CCC)CC(=O)N(CCC)CC(=O)N(CC(N)=O)Cc1cn(CCCNC(=O)CCCOc2cccc(-c3nc4ccc(-c5nc6ccc(N7CCN(C)CC7)cc6[nH]5)cc4[nH]3)c2)nn1)Cc1cn(CCCNC(=O)CCCOc2cccc(-c3nc4ccc(-c5nc6ccc(N7CCN(C)CC7)cc6[nH]5)cc4[nH]3)c2)nn1)Cc1cn(CCCNC(=O)CCCOc2cccc(-c3nc4ccc(-c5nc6ccc(N7CCN(C)CC7)cc6[nH]5)cc4[nH]3)c2)nn1)C(=O)CNCc1cn(CCCNC(=O)CCCOc2cccc(-c3nc4ccc(-c5nc6ccc(N7CCN(C)CC7)cc6[nH]5)cc4[nH]3)c2)nn1  propidium iodide-only positive cells (C2C12; flow cytometry; 5 µM, 14 h): 1.4%
[64Cu+2].c1cnc(CNCc2ccc(CN3CCCN4CCNCCCN(CC4)CC3)cc2)nc1  tissue uptake (CXCR4 (human); NOD/SCID mice, U87 xenografts, U87 control tumour; 240 min post-injection): 6.87 ± 1.01 %ID/g
CC[C@H](C)[C@H](NC(=O)[C@H](C)NC(=O)CNC(=O)[C@H](Cc1ccccc1)NC(=O)[C@H](CC(N)=O)NC(=O)[C@H](CC(N)=O)NC(=O)[C@H](CO)NC(=O)[C@H](CO)NC(=O)[C@H](Cc1c[nH]cn1)NC(=O)[C@@H](NC(=O)[C@H](CC(C)C)NC(=O)[C@H](Cc1ccccc1)NC(=O)[C@H](CC(N)=O)NC(=O)[C@H](C)NC(=O)[C@H](CC(C)C)NC(=O)[C@H](CCCNC(=N)N)NC(=O)[C@H](CCC(N)=O)NC(=O)[C@@H](NC(=O)[C@H](C)NC(=O)[C@@H]1CSSC[C@H](NC(=O)[C@@H](N)CCCCN)C(=O)N[C@@H](CC(N)=O)C(=O)N[C@@H]([C@@H](C)O)C(=O)N[C@@H](C)C(=O)N[C@@H]([C@@H](C)O)C(=O)N1)[C@@H](C)O)C(C)C)C(=O)N[C@@H](CC(C)C)C(=O)N[C@@H](CO)C(=O)N[C@@H](CO)C(=O)N[C@H](C(=O)N[C@@H](CC(N)=O)C(=O)N[C@H](C(=O)NCC(=O)N[C@@H](CO)C(=O)N[C@@H](CC(N)=O)C(=O)N[C@H](C(=O)N[C@@H](Cc1ccc(O)cc1)C(N)=O)[C@@H](C)O)C(C)C)[C@@H](C)O  viability (INS-1; AlamarBlue; 21 µM, 48 h; reference: medium alone): 54 ± 5%
O=C(N[C@@H](Cn1cncn1)c1ccc(Cl)cc1Cl)c1ccc(-c2nnc(-c3ccccc3)o2)cc1  viability (NIH/3T3; BrdU incorporation; 50 µM, 24 h; reference: DMSO): 98.1% and 98%
[64Cu+2].c1ccc(CNCc2ccc(CN3CCCN4CCNCCCN(CC4)CC3)cc2)nc1  tumour-to-tissue ratio (CXCR4; NOD/SCID mouse, U87 and U87-stb-CXCR4 xenografts; iv, 90 min, no blocking dose; reference: U87 tumour over muscle): 15.3 ± 7.01
CCC(=O)N(C)c1ccc(Cl)c(Cl)c1  fold activation (NR1I2 (Homo sapiens, UniProt O75469); reporter gene, agonist; 100 µM; reference: vehicle): 2.28 fold
Cn1c(=O)oc2ccc(-c3ccc(CC(C#N)NC(=O)C4CNCCCO4)c(F)c3)cc21 (stereo not drawn)  treatment-related adverse event incidence (refers to: macule; human volunteers; oral, 40 mg, single ascending dose fed): 0%

Some of these lines once more:
CNc1ccc(-c2nc3ccc(O)c(CN4CCN(C)CCN(C)CC4)c3s2)cc1  viability (Neuro2A; Alamar Blue; up to 10 µM, 40 h; reference: 1% DMSO vehicle): > 80%
O=C(N[C@@H](Cn1cncn1)c1ccc(F)cc1F)c1ccc(-c2nnc(-c3ccccc3)o2)cc1  viability (NIH/3T3; BrdU incorporation; 50 µM, 24 h; reference: DMSO): 101 ± 1.4%
